Results collected from several papers.
Each numbered part is a random draw from the data of one study; scales do not carry over between parts.

Block 1
Target: Histone acetyltransferase KAT6A, winged helix 1, GST fusion (KAT6A, Homo sapiens, UniProt Q92794, residues 1-85)
Technique: protein binding microarray
Form: double-stranded DNA, one strand shown
Matrix: in vitro
Concentration: not given
Notes: 8-mer, flanks averaged, mean of 2 arrays, mostly near background
Relative to: not given
Direction: higher = stronger binding
Endpoint: E-score
Residues (chain): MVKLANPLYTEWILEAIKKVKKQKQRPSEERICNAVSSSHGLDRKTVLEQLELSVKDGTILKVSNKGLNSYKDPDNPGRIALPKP
Oligonucleotide = TGGCGCAA; result = 0.187
Oligonucleotide = AAAGTGGC; result = -0.00944
Oligonucleotide = AGCAATCG; result = -0.00115
Oligonucleotide = ACATTCAT; result = -0.266
Oligonucleotide = CGCGAGAG; result = 0.343
Oligonucleotide = GATTCAAA; result = -0.263
Oligonucleotide = TAGGACAA; result = -0.35
Oligonucleotide = GCTTGGCA; result = -0.22
Oligonucleotide = GCCGGTTA; result = 0.262
Oligonucleotide = CCATACCG; result = 0.176
Oligonucleotide = TAAGTTGA; result = -0.22
Oligonucleotide = GAATGAGC; result = -0.101
Oligonucleotide = CCCATTTA; result = -0.197
Oligonucleotide = CTCGACGA; result = -0.0109
Oligonucleotide = CCAGGGCG; result = 0.165
Oligonucleotide = CCGGATGC; result = 0.127
Oligonucleotide = CAAAAATC; result = -0.128

Block 2
Target: RING finger protein unkempt homolog, zinc fingers 1-6, GST-SBP tag (UNK, Homo sapiens, UniProt Q9C0B0, residues 30-357)
Technique: RNA Bind-n-Seq
Form: RNA
Matrix: in vitro
Concentration: not given
Notes: RNA with constant flanks, human and mouse sites, ends assumed
Relative to: input RNA pool
Direction: higher = stronger binding
Endpoint: bound/input enrichment
All sequences stand within: GGGAGUUCUACAGUCCGACGAUC … CAACAGAGGAUUGAGCAUCA
Construct (chain): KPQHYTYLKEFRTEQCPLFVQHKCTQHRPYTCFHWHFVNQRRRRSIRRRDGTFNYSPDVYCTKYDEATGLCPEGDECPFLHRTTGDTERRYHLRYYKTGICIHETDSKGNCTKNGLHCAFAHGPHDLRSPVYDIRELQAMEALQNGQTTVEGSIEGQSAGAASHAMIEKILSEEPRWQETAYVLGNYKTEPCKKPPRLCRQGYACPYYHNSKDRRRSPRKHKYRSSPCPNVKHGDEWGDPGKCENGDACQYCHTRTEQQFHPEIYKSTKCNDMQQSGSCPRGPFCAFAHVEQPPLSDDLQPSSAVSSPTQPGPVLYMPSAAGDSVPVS
Oligonucleotide = CUCAUUCAGGACUCAGUGACUGGUUUUUUUUUGUUUGUUUGUUUGUUUUGUUUUGUUUUGUUUUUCUUAAUCACAAGGGCGUGGGUCAGCCUCCCCUAGGACUUCAUGUCUGUAUAUUUC; result = 2.21 ratio
Oligonucleotide = GACUGGAAGAACUCCAAUCUUGACAGACACAAUCUCCAAGACUUCAUCAAUAUUAAACUCAAUUCAGCUUCUAUCUUGCCAGAAAUGGAAGGACUUUCUGAGUUUACCGAGUAUCUCUCA; result = 0.133 ratio
Oligonucleotide = GCUGAUUAUCAUGUCUGUAAUAGACCCGUGCAUGCAGCCUUCCCUCUGCCUCCCCCUCAUCUCCUCACAGGUGGGUUAUUUACAUUACAAACUUUUAACUCAUUUUUGAUCUAGGACAUG; result = 0.385 ratio
Oligonucleotide = CCCUUCUGCCGAAUCUGCCACGAGGGAGCAAAUGGGGAGAACUUGCUGUCCCCAUGUGGCUGCACGGGCACACUGGGAGCUGUGCACAAGAGCUGCCUGGAGAAAUGGCUGUCUUCCUCC; result = 0.0601 ratio
Oligonucleotide = GAAGGUUCUAAGACGUGGGAUCGUUUCCAGAUGAGAAUUCACAAGCGACUCAUUGACUUGCACAGUCCUUCUGAGAUUGUUAAGCAGAUUACUUCCAUCAGUAUUGAGCCAGGAGUUGAG; result = 0.199 ratio
Oligonucleotide = GAGGUUGUUAAGGACAAAGCAGGACCUCAUAAGGAAAUCUAUCCCUAUGUCAUCCAGGAACUUAGACCAACUUUAAAUGAAUUGGGAAUCUCCACUCCAGAGGAGCUGGGCCUUGACAAA; result = 0.211 ratio
Oligonucleotide = UUCUACGUGAAUAGGAUUUUGUGGCUGGCCAGAUACACUGCAUCAUCUUUUUCAUCAUUUUUAGUUCAACUUUUUCAAGUGGUUUUAAUGAAGCUCAGUUAUGAAUCAGAAAAUUACAAA; result = 1.55 ratio
Oligonucleotide = UUGCUUUUCACAUCCAUUUCCCCUCCUUCCCAUGGGCAGAGGACCAGGCUGUAGGAAAUCUAGUUAUUUACAGGAACUUCAUCAUAAUUUGGAGGGAAGCUCUUGGAGCUGUGAGUUCUC; result = 0.768 ratio
Oligonucleotide = CAGUCUUCUAUGUCUAUUGAGUUCGGCCAGGAAUCCCCUGAGCAUUCUCUUGCUAUGGACUUUAGUCGGCAGUCUCCAGAUCACCCUACUCUGGGUGCCAGUGUGCUUCAUAUCACUGAA; result = 0.251 ratio
Oligonucleotide = GUUCCCGCAGCCUAUGGCCCAGGCCGCCUUGGGUAUUUCUGCUCAAGGUAACCACAUCCCUCUUUAAAAAUUCCGCCGAAAAAGAGAAGACGCUUUACCCGACUCUUUGGGCCGUUAUCU; result = 0.242 ratio
Oligonucleotide = AAGUGGUUACGGGAAAUUCUGAUCUGCAGAAAUAAAUUUCUUCUUAAAAAUAAGCAGGCAGAUAGAAGCUCCUGUCAUUCUCUCUACCUUUAUGGAGUAGGAUGUGAAAUGUCUGCUACU; result = 0.117 ratio

Block 3
Target: Sal-like protein 4, full length isoform B (SALL4, Homo sapiens, UniProt Q9UJQ4-2, residues 1-616)
Technique: universal PBM
Form: double-stranded DNA, one strand shown
Matrix: in vitro
Concentration: not given
Notes: 8-mer, flanks averaged, mean of replicates
Direction: higher = stronger binding
Endpoint: E-score
Target sequence (chain): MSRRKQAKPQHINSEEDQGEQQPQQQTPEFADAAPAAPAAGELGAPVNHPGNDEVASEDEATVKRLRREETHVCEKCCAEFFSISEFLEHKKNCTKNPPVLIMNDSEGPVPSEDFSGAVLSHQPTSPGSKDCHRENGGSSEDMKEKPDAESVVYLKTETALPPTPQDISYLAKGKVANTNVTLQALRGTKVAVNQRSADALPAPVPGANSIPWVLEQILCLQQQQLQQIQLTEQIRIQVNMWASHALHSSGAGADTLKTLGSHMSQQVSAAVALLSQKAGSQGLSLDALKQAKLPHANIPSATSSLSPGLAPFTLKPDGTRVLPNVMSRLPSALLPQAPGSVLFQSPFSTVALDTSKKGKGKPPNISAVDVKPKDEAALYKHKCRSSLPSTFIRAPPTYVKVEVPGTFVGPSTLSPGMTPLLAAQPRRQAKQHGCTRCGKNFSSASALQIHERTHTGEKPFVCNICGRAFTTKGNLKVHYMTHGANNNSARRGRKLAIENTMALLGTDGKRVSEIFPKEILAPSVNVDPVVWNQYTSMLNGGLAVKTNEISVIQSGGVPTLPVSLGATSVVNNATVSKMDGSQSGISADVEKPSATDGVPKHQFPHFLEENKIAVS
Oligonucleotide = GATTCGAA; result = 0.103
Oligonucleotide = GGTCCCTA; result = -0.244
Oligonucleotide = GCAAAAAC; result = 0.138
Oligonucleotide = GCAGTCAA; result = -0.154
Oligonucleotide = ACTGTCCT; result = -0.101
Oligonucleotide = CGAAGAGA; result = 0.0992
Oligonucleotide = CATCACAA; result = 0.191
Oligonucleotide = GTTCCAAC; result = -0.0973
Oligonucleotide = TAAAGACA; result = 0.163
Oligonucleotide = CTCTGACA; result = 0.0607
Oligonucleotide = CACTTAAA; result = 0.196
Oligonucleotide = AGAAGCGA; result = -0.0966
Oligonucleotide = GTTCTTTA; result = 0.122
Oligonucleotide = CGGAGCAG; result = -0.18
Oligonucleotide = GCAAACAA; result = 0.109
Oligonucleotide = AATATTTC; result = 0.439
Oligonucleotide = ATTATCGC; result = 0.265
Oligonucleotide = GAGAAACC; result = -0.0636
Oligonucleotide = AACGCCAA; result = 0.127
Oligonucleotide = GCCGCAAA; result = -0.126
Oligonucleotide = TAGTGTGA; result = 0.125
Oligonucleotide = GAATTGGA; result = 0.0622
Oligonucleotide = ACGAGAGT; result = 0.0472
Oligonucleotide = CCCTATTC; result = -0.0622
Oligonucleotide = CAAAGAGA; result = 0.0343

Block 4
Target: RNA binding protein fox-1 homolog 2, RRM domain, GST-SBP tag (RBFOX2, Homo sapiens, UniProt O43251-10, residues 100-194)
Technique: RNA Bind-n-Seq
Form: RNA
Matrix: in vitro
Concentration: 365 nM
Notes: natural RNA segment, single round, ends assumed
Relative to: no-protein control
Direction: higher = stronger binding
Endpoint: RBNS enrichment (R)
All sequences stand within: GGGAGUUCUACAGUCCGACGAUC … UGGAAUUCUCGGGUGCCAA
Target sequence (chain): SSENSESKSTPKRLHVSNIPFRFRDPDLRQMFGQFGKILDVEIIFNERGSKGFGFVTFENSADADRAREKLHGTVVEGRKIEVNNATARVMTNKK
Oligonucleotide = AGCUUUCUUUCACCCAGCUUUGUUGUUUUAAUUAACUGCCCAUUAGAGAGACUGUACUUUUUUUCUAGAAAAAAAUAUUGUGAAACAGUUUUCUGUAGUGAUAUUGUUGA; result = 0.485
Oligonucleotide = UAUAAACACUAAGAUGGGGUGCAAGGGCCCAGCCCCAGCUCCACAGCCCCCAUAUGCACCCACCCUGUCGCUAUCUUGGAUGGCCCGCUCUGGGAGAUGUUGGGUGUUUU; result = 0.338
Oligonucleotide = GCUUUGGCAUCCAGAGCAUAAGAGAUGAAUGCAGCUACCCUGUGCCAUCCUACUAUAAUAAAUUUUGCACCCACACACAAGUACACAGUUUGCUGUUUUAGAAAGUGAUU; result = 0.919
Oligonucleotide = CCUUGCAGAGCAGGAAGUUUAGCCAGGCUCGAGUGUAUCCCCUCCAGCCCUGGCAAAGGGCUUCUGCUCACCACAGAUCUAUAGCCAGUCUGAAUAGAGGAAGAGAGAAC; result = 0.221
Oligonucleotide = CUGGAAUGCAGAUGACAGUAUGGAAAGAAAGAAUAAUGAUUCUAUCUAAUAGGAAAGGAUUUCUUCUUUCUUUUUUAAAGAGUGGGUGGAUUUUCUCCCUUUUGUUUUGC; result = 0.799
Oligonucleotide = AGAAGAAACAUUCCAAAAUCAGGGCCUCCCUGUUCUUUCCUCCCCAUCCCUAGCUCCUGCAAGAGAAAGUCCAGGCUUUGGGAGCAGAUGGCAGAGGGAGGGAGUAAAGA; result = 0.295
Oligonucleotide = CCUCCUGCAGCUGUGCCGUCCACACCUCUAGGUCGCCAGAGCCCUGGCCCCCAGCCCCCAGCAAGCCUGAGCCCGGGAAGAACCAGAGGCCCUCCCGAGAGACCCAGUCA; result = 0.306
Oligonucleotide = ACUAGAUCUCAGAAGUUUUGAAAAAUAGCAAAGAAGACUGGAUUUGGAAAGCAUGGUCUACAAUUGGUUGUUAAAUUCUGAAGCUAUGAAGAAUAAAUGUUUCAACUUUG; result = 24.8
Oligonucleotide = UAUUUUCAUCAAUUCUGUGCCCAGUGCAUGUAAUAACAAAGAUUUAAAUUUCAUUGUUUAAUGAAAGGGCAAGUCAAAUGCUUGCCCCAAAUUUAAUACAUGUGAUUUGU; result = 0.599
Oligonucleotide = UGAAAACCAACACGAAAGCUAAUCAUGACAAGGAAGUAAAACAUAGGAUCUGAGAGGAGAGGGUCCUUGCUCCAUGCAUGAGGACAUCCAUCCCACCCACUGCCUCUGAA; result = 2.63
Oligonucleotide = ACGGCAGAGGCCUCCUGGCCUCAGGGCAUGCCCUGCCUACCUUCUGAAAUGUUUACCCCAUUGACCAAACUUGGCUCCAGCCAUUGCGGUGGUUUCUAGAUAGCCAGGCC; result = 0.474
Oligonucleotide = ACCAUUUUGGAAACUGUCAUGUAACUUAUUUUCUCCUUUAACCUCGUCAUCGUUUUCUGUAGGGGAAAAAAAAGAGAAAAAGAGAAAAAAAAAUGAGAUUUUACAAAUGA; result = 0.441

Further values, each from its own experiment
Substance = PhoQ, residues 284 288 289 292 302 303 SVTLVV; target = PhoP, residues 12 14 15 18 19 LYHSL (Escherichia coli, UniProt P23836); assay = Sort-seq, refers to: YFP reporter; test system = E. coli; setting = PhoQ-PhoP variant library, together with: 10 µM Mg2+; scale = relative to: high Mg2+ state, higher = stronger signaling; endpoint = fold induction; result = 2.64

For quick reference, copied from above (block 3):
Oligonucleotide = GGTCCCTA; result = -0.244
Oligonucleotide = GCAAAAAC; result = 0.138
Oligonucleotide = GCAGTCAA; result = -0.154
Oligonucleotide = ACTGTCCT; result = -0.101
Oligonucleotide = CGAAGAGA; result = 0.0992
Oligonucleotide = CATCACAA; result = 0.191
Oligonucleotide = GTTCCAAC; result = -0.0973
